Results gathered from unrelated publications.
Numbered parts are unrelated; each lists some results of a single study.
Chain of UniProt P42681 (whole entry, looked up): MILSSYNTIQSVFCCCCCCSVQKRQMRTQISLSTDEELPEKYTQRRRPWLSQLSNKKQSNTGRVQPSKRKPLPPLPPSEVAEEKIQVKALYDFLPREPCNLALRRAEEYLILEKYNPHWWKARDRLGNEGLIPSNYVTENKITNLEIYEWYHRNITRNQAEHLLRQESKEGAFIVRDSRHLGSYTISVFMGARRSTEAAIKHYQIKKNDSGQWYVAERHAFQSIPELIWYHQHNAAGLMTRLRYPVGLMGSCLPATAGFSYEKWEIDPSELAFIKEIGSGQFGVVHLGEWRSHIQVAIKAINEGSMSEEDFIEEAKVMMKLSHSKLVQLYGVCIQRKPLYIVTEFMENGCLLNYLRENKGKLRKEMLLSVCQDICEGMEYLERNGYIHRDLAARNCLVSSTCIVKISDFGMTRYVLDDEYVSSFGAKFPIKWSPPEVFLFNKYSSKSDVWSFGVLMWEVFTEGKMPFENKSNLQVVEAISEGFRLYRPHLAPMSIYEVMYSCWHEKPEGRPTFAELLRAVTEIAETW
Chain of UniProt Q15759 (whole entry, looked up): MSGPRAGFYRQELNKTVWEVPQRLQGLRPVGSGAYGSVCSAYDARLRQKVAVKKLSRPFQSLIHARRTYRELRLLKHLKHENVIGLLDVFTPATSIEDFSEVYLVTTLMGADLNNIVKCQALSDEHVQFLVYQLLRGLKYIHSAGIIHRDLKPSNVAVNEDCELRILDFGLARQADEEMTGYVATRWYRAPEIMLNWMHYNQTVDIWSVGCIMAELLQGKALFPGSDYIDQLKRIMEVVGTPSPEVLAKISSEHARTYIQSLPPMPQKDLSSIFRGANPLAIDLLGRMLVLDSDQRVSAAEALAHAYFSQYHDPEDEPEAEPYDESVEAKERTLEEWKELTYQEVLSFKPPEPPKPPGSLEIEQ
Chain of UniProt O75676 (whole entry, looked up): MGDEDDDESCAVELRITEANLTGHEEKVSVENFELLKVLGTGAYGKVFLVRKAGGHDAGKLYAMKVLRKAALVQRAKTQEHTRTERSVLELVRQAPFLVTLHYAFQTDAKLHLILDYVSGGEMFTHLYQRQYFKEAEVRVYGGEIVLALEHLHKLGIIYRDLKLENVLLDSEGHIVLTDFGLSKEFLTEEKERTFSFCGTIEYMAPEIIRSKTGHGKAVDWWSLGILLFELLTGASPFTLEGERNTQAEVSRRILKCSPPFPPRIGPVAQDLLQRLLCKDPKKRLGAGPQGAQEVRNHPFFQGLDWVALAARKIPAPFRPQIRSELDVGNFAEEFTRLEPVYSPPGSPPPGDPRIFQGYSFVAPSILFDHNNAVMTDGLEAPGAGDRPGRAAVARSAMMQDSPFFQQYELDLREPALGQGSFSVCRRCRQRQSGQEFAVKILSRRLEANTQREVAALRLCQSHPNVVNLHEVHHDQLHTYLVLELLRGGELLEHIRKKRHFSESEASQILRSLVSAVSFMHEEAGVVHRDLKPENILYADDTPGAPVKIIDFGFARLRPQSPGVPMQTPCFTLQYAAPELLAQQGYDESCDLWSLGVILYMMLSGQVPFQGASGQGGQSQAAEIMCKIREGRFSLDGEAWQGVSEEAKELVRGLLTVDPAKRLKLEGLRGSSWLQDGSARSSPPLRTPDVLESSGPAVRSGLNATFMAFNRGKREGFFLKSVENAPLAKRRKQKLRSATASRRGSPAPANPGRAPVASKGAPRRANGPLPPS
Chain of UniProt Q9Y2I7 (whole entry, looked up): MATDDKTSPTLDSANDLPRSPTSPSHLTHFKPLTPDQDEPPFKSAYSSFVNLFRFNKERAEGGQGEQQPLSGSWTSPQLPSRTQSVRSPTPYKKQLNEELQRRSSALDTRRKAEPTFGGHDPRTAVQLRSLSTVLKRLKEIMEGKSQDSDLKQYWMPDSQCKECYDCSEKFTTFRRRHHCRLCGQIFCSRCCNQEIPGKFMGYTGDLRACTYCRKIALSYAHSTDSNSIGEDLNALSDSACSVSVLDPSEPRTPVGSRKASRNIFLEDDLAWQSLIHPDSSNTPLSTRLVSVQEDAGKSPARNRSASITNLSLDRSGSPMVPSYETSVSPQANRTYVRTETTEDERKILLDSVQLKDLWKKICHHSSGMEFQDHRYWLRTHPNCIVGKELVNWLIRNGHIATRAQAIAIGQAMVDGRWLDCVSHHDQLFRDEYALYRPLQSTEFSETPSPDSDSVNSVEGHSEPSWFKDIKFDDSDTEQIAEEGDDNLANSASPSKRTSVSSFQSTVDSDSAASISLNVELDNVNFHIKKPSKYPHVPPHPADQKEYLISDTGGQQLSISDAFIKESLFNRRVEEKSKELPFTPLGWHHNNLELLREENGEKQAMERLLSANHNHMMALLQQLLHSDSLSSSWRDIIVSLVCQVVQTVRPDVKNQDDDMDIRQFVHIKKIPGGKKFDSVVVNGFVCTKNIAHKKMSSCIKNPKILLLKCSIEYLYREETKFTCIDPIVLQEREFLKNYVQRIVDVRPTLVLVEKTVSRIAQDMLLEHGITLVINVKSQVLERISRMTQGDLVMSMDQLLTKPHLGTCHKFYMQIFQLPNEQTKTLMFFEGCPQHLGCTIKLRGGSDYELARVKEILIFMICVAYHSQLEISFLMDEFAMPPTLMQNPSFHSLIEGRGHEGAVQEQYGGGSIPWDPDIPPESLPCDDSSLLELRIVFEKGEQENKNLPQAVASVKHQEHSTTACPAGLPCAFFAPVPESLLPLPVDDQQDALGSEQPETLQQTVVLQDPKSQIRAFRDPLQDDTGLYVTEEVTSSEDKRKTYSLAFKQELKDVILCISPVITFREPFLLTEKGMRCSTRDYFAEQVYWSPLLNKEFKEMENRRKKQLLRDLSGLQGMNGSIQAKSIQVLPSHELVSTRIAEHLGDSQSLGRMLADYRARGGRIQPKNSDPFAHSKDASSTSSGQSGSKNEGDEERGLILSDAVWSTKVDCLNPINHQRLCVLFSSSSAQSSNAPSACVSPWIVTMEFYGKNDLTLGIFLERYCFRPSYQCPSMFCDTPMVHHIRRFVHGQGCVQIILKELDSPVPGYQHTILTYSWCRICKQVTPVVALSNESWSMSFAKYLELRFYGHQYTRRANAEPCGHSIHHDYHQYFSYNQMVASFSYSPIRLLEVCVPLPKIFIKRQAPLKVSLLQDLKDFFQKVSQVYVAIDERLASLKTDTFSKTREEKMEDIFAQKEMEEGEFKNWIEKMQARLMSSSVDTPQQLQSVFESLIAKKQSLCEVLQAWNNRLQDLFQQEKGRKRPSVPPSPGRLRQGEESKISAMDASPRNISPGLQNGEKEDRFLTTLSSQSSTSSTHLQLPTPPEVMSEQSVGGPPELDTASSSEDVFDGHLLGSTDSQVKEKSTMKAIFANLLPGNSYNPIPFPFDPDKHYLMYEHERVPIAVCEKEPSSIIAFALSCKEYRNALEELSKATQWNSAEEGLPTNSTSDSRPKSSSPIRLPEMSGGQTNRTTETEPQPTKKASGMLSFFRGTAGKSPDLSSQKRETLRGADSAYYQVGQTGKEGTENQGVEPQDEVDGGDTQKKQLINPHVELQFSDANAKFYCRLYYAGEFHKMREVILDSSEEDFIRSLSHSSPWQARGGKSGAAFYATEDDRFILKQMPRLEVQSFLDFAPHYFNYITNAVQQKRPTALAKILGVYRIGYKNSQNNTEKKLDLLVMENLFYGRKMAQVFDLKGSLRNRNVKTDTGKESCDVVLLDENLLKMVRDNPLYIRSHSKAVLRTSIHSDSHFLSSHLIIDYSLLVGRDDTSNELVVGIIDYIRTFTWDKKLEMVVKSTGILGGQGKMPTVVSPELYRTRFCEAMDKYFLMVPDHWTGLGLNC
Chain of UniProt P10721 (whole entry, unmodified, looked up): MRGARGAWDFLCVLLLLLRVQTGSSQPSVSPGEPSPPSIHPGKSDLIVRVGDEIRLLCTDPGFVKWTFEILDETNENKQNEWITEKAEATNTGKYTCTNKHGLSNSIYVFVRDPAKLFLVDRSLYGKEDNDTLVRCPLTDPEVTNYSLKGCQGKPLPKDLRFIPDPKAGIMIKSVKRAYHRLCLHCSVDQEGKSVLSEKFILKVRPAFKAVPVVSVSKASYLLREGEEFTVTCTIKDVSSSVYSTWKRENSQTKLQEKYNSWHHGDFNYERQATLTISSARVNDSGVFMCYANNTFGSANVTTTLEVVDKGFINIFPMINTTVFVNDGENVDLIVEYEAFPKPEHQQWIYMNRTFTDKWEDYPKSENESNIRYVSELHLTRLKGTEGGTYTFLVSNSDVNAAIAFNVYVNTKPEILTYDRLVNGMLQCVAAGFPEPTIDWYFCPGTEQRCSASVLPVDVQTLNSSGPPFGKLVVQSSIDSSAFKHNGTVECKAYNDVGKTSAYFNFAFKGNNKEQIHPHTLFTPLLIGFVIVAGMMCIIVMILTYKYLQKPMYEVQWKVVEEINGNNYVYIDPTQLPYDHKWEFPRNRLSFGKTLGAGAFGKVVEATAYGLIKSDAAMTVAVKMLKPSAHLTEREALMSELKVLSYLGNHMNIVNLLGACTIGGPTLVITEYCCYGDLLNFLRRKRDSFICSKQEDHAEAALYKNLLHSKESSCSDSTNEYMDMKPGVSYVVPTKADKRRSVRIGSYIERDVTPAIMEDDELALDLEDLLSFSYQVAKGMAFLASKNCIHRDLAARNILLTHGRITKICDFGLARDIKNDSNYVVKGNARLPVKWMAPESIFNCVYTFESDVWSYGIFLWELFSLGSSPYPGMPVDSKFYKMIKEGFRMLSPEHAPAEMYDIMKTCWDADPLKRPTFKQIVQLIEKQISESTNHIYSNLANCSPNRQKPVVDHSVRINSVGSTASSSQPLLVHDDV
Chain of UniProt Q16539 (whole entry, looked up): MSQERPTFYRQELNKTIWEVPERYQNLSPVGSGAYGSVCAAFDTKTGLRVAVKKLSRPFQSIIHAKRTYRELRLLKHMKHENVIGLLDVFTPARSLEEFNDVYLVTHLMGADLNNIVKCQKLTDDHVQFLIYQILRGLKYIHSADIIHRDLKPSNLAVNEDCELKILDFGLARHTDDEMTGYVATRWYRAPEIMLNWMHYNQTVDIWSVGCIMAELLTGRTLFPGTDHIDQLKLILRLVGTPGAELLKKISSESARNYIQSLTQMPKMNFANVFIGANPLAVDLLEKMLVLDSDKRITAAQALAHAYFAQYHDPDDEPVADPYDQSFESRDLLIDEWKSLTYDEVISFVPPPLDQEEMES

Study 1
Structure (SMILES): CCC(=O)N[C@H]1CC[C@@H](C(=O)N(C)c2ccc(-c3nc4ccccc4o3)cc2)C1
Effect on: cell-free assay
Method: competition with immobilised ligand
Concentration: 1 µM
| target | remaining binding [%] |
| --- | --- |
| MAPK11 (Homo sapiens, UniProt Q15759) | 82 |
| PIKFYVE (Homo sapiens, UniProt Q9Y2I7) | 94 |
| IRAK1 (Homo sapiens, UniProt P51617) | 83 |
| TXK (Homo sapiens, UniProt P42681) | 100 |
| MAP4K2 (Homo sapiens, UniProt Q12851) | 96 |
| KIT (Homo sapiens, UniProt P10721, V559D) | 94 |
| DYRK2 (Homo sapiens, UniProt Q92630) | 87 |
| Ribosomal protein S6 kinase alpha-1, C-terminal kinase domain (RPS6KA1, Homo sapiens, UniProt Q15418) | 99 |
| MAP3K20 (Homo sapiens, UniProt Q9NYL2) | 89 |

Study 2
Host: human
Matrix: microsomes or S9
Concentration: 2 µM
Time: 0.5 h
| SMILES | remaining compound [%] |
| --- | --- |
| CCOc1cccc(CNC(=O)c2c(OCC(C)C)cc(=O)n3c2CCCCC3)c1 | < 1 |
| C(=C\c1nnn(Cc2ccccc2)n1)/c1ccccc1 | 31.5 |
| CCOc1ccc(-n2nc3ccc(N)cc3n2)cc1 | 24.9 |
| CCC(C)NC(=O)Cn1nc2n(CCC(=O)NCC(C)C)c(=O)c3ccccc3n2c1=O (centres unmarked) | 76.2 |
| O=C(c1ccc(-c2ncc[nH]2)s1)N1CC[C@@H](c2ccc(F)cc2)[C@H](O)C1 | 21.5 |
| CC(C)(NCc1ccncc1Cl)c1ccc(F)cc1Cl | 0 |
| CCNC(=O)NCCc1ccc(OC)c(Nc2ncc(Cl)c(Nc3ccccc3S(=O)(=O)C(C)C)n2)c1 | 0.861 |
| COc1cc2c(cc1OC)-c1cc(-c3ccccc3F)cn1CC2 | 6.51 |
| CCOc1cc(=O)n2c(c1C(=O)NCc1cccc(F)c1)CCCCC2 | 54.8 |
| COc1cc(Br)c(S(=O)(=O)NC2CCN(C(C)=O)CC2)cc1OC | 77 |

Study 3
SMILES: O=C(O)/C=C/c1cc(Br)c(Br)c(Br)c1Br
Effect on: enzyme activity
Action: inhibitor
Concentration: 0.5 µM
Relative to: control
| target | remaining activity |
| --- | --- |
| DCLK2 (Homo sapiens, UniProt Q8N568) | 94.8% |
| RPS6KA4 (Homo sapiens, UniProt O75676) | 103% |
| TXK (Homo sapiens, UniProt P42681) | 98.7% |
| MAPK11 (Homo sapiens, UniProt Q15759) | 92.7% |
| MARK4 (Homo sapiens, UniProt Q96L34) | 93.1% |
| CLK3 (Homo sapiens, UniProt P49761) | 96.1% |
| PAK3 (Homo sapiens, UniProt O75914) | 100% |
| GRK4 (Homo sapiens, UniProt P32298) | 101% |
| CLK4 (Homo sapiens, UniProt Q9HAZ1) | 45.4% |
| MARK2 (Homo sapiens, UniProt Q7KZI7) | 82.1% |
| MET (Homo sapiens, UniProt P08581) | 84.5% |
| PLK3 (Homo sapiens, UniProt Q9H4B4) | 73.6% |
| MAPK14 (Homo sapiens, UniProt Q16539) | 99.5% |

Study 4
Organism: Plasmodium berghei
Action: inhibitor
Cell line: Huh-7
Strain: GFP-expressing sporozoites, liver stage
Concentration: 10 µM
Time: 24 h
Relative to: untreated control
| SMILES | infection rate |
| --- | --- |
| CCn1cc(C(=O)O)c(=O)c2cc(F)c(N3CCNCC3)nc21 | 97.8% |
| CC(=O)OCC[N+](C)(C)C | 117% |
| CCOC(=O)[C@H](CCc1ccccc1)N[C@@H](C)C(=O)N1CCC[C@H]1C(=O)O | 91.4% |
| CC1(C)O[C@@H]2C[C@H]3[C@@H]4CCC5=CC(=O)C=C[C@]5(C)[C@H]4[C@@H](O)C[C@]3(C)[C@]2(C(=O)CO)O1 | 106% |
| O=C(Oc1cccc2cccnc12)c1ccccc1 | 15.6% |
| Cc1cc(=O)n(-c2ccccc2)n1C | 101% |
| CC[C@H]1OC(=O)[C@H](C)[C@@H](O[C@H]2C[C@@](C)(OC)[C@@H](O)[C@H](C)O2)[C@H](C)[C@@H](O[C@@H]2O[C@H](C)C[C@H](N(C)C)[C@H]2O)[C@](C)(O)C[C@@H](C)CN(C)[C@H](C)[C@@H](O)[C@]1(C)O | 93% |
| CCCC(C(=O)OCCN(CC)CC)(c1ccccc1)c1ccccc1 | 7.36% |
| COc1ccc(-c2cc(C(F)F)nn2-c2ccc(S(N)(=O)=O)cc2)cc1F | 113% |
| Nc1c2ccccc2nc2ccccc12 | 16.6% |
| CNCCc1ccccn1 | 91.5% |
| O=C(CCCN1CCN(c2ccccn2)CC1)c1ccc(F)cc1 | 111% |

Excerpt of the above (study 4):
| SMILES | infection rate |
| --- | --- |
| O=C(Oc1cccc2cccnc12)c1ccccc1 | 15.6% |
| CC[C@H]1OC(=O)[C@H](C)[C@@H](O[C@H]2C[C@@](C)(OC)[C@@H](O)[C@H](C)O2)[C@H](C)[C@@H](O[C@@H]2O[C@H](C)C[C@H](N(C)C)[C@H]2O)[C@](C)(O)C[C@@H](C)CN(C)[C@H](C)[C@@H](O)[C@]1(C)O | 93% |
| COc1ccc(-c2cc(C(F)F)nn2-c2ccc(S(N)(=O)=O)cc2)cc1F | 113% |
